Results gathered from unrelated publications.
Protocols differ between the studies behind these lines. Several values in a cell are separate wells, animals, samples, runs or records. ± gives the spread as reported.

Substance | assay | system | setting | scale | quantity | value
COc1cccc(N2CCN(C3=Nc4c(F)cccc4[C@H](CC(=O)O)N3c3cc(C(F)(F)F)ccc3OC)CC2)c1 | UHPLC-MS/MS | healthy women, plasma | intravenous infusion, 720 mg single dose, 60 min infusion, HPβCD formulation | – | elimination rate constant | 1.84e-05 ± 5.92e-06 s⁻¹
CCOc1ccc(Cc2cc([C@]34OC[C@](CO)(O3)[C@@H](O)[C@H](O)[C@H]4O)ccc2Cl)cc1 | – | human, fasted | oral, 15 mg | baseline: i.v. 14C 100 µg | oral bioavailability | ~100%
CCCCCCCCC/C=C/C(=O)CCc1ccc(O)c(OC)c1 | – | human ileostomy patients, ileal effluent | oral, 5 g TU-100, 4 h, no β-glucuronidase treatment | – | amount recovered, maximum | 5020 ng
O=C(/C=C/c1ccc(O)c2c1[C@H](C(=O)O)[C@@H](c1ccc(O)c(O)c1)O2)O[C@H](Cc1ccc(O)c(O)c1)C(=O)O | UPLC-MS/MS | Wistar rat, microcirculation dysfunction model, plasma | oral, 100 mg/kg Salvia miltiorrhiza stem-leaf extract FS | – | MRT(0-t) | 7.93 ± 1.52 h
CSc1cc(C)nc(SC)c1NC(=O)CN1CCN(CCSc2nc3ccccc3[nH]2)CC1 | – | mouse Crl:CD1 (ICR) female, olfactory bulb | intranasal repeated, 32.4 µg in 0.01 N HCl, 15 min | – | concentration | 51 ng/g
CN1CCN(c2ccc3nc(-c4c(N)c5c(F)cccc5[nH]c4=O)[nH]c3c2)CC1 | – | NOD/SCID mice, male, blood or plasma | oral, 30 mg/kg once daily, 24 h | – | Cmin | 41.2 ± 9.3 ng/mL
CC(=O)Nc1ccc(O)cc1 | – | healthy volunteers, both sexes, plasma | oral, 650 mg, day 1 | – | AUC(0-12 h) | 31200 ng·h/mL
Cc1nc(-c2ccc(OCC(C)C)c(C#N)c2)sc1C(=O)O | – | adults with gout, plasma | oral, 40 mg, together with: verinurad 10 mg | – | AUC(0-24) | 3070 ng·h/mL
CCc1nc(C(N)=O)c(Nc2ccc(N3CCC(N4CCN(C)CC4)CC3)c(OC)c2)nc1NC1CCOCC1 | – | human, moderate hepatic impairment, plasma | oral, 10 mg, single dose, fasted, geometric LS mean | – | AUC(0-480 h) | 316 ng·h/mL
S=C(NCCCc1c[nH]cn1)NCCCN(Cc1ccc(Cl)c(Cl)c1)c1ccc(Br)cn1 | – | male C57BL/6 mice, plasma | intraperitoneal, 30 mg/kg, 24 h | – | plasma concentration | 8.04 ng/mL
CC(C)NC[C@@H](C(=O)N1CCN(c2ncnc3c2[C@H](C)C[C@H]3O)CC1)c1ccc(Cl)cc1 | – | human, normal hepatic function, plasma | oral, 100 mg single dose, reference group versus Mild | baseline: NCI classification | AUC(0-∞) | 340 ng·h/mL
Cc1nc2cccc(OCC(C)(C)C(=O)NC(C)C)c2c(N)c1C(=O)O | – | male Sprague-Dawley rat, plasma | intravenous, 1 mg/kg, single dose | – | Vd | 0.44 L/kg
O=C1NC(=O)[C@@H](c2cn3c4c(cccc24)CCC3)[C@@H]1c1c[nH]c2ccccc12 | – | human, plasma | oral, 120 mg, steady state, median, together with: topotecan intravenous | – | AUC(0-12h) | 12000 ng·h/mL
COc1cc(Nc2ncc3c(n2)-c2ccc(Cl)cc2C(c2c(F)cccc2OC)=NC3)ccc1C(=O)O | – | children, UGT1A1 extensive metabolizers, grade ≥2 toxicity, plasma | oral, 80 mg/m2, day 4, median | – | trough concentration | 530 nM
CC12CCC(CC1=O)C2(C)C (stereo not shown) | – | human red blood cells | 10 to 300 µg/mL, 30 min | – | maximum hemolysis | < 14%
Cn1c(-c2ccc(C(N)=O)cc2F)nnc1C(C)(C)Oc1c(F)cc(Cl)cc1F | – | young non-Japanese adults, plasma | oral, 20 mg single dose, day 1, high-dose multiple-dose study | – | half-life range over subjects | 10.5 to 27.4 h
CN[C@@H]1[C@H](O)[C@H](NC)[C@H]2O[C@]3(O)[C@H](O[C@@H]2[C@H]1O)O[C@H](C)C[C@H]3NC(=O)Cc1cc(Cl)c(F)cn1 | glutathione conjugation | human liver S9 | 100 µM, 2 h, pH 7.4, together with: glutathione 0.2 mM | – | parent remaining | 98.6%
CN1CC[C@@H](NC(=O)Nc2ccc(C#N)cc2)C[C@@H]1c1nc2ccccc2[nH]1 | – | healthy human volunteers | oral, 200 mg once daily, 2445 ng/mL, supratherapeutic steady-state Cmax | – | ΔΔQTcF | 13.7 ms
Nc1nc2c(ncn2COCCO)c(=O)[nH]1 | – | excised rabbit cornea | 1 mM, 3 h, pH 7.4, together with: L-alanine 5 mM | – | Papp | 2.06 ± 0.69 ×10⁻⁶ cm/s
O=C1N=C(N2CCOCC2)CN1c1ccc(Cl)cc1 | – | beagle dog, female, plasma | oral, 30 mg/kg, tablets | – | AUC(0-inf) | 82900 ng·h/mL

Substance | assay | system | setting | scale | quantity | value
CC(C)(C(=O)NCC(F)(F)C(F)(F)F)C(=O)N[C@@H]1C(=O)Nc2ccccc2-c2ccccc21 | – | advanced breast cancer patients, plasma | oral, 20 mg, range among patients | – | AUC(0-24 h) | 1.53 to 24.8 µM·h
colistin methanesulfonate | one-compartment PK model | rat | i.p., 20 mg/kg colistin base activity | – | rate of conversion to colistin | 1.21 ± 0.381 mL/min/kg
C[C@]12CC[C@@H]3c4ccc(O)cc4CC[C@H]3[C@@H]1C[C@@H](O)[C@@H]2O | GC-MS | breast cancer women on NSAI, serum | vaginal, 0.03 mg daily, 24 h, day 28 | – | median serum concentration | 0 ng/mL
O=C(O)[C@H](c1ccccc1Cl)N1CCc2sccc2C1 | HPLC-MS/MS | feline EDTA plasma | 72 h, -80 °C, storage stability | – | deviation from nominal | -1%
O=C1CCc2c(O)cccc2C(=O)Nc2ccccc21 | nephelometry | aqueous buffer | 30 min, pH 6.5 | – | kinetic solubility | > 100 µg/mL
C=CC(=C)CCC1(C)C(C)CC(O)C23C(=CC(OC(=O)/C=C/C=C/CCCCC)CC12)C(OC(C)=O)OC3OC(C)=O (stereo not shown) | haemolysis | – | 100 µM | – | haemolysis | 35.5%
CCCCCCCCCCCCCNCC(=O)N(CC(=O)N(CCCCN)CC(=O)N(CCN)CC(=O)N(CC(N)=O)C(C)C)C(C)C | preparative RP-HPLC C18 | water to acetonitrile gradient | 0.05% TFA in eluent | higher = more hydrophobic | acetonitrile at elution | 66.7%
Teicoplanin | HPLC | critically ill adult patients, plasma | 676 mg/day, steady state total concentration | – | trough concentration (Cmin) | 20600 ± 10400 ng/mL
CS(=O)(=O)OC[C@H](O)[C@@H](O)COS(C)(=O)=O | – | Wistar rat, male, red blood cells and plasma | intraperitoneal, 500 mg/kg, 1 h | – | RBC/plasma partition coefficient | 0.66 and 0.75 and 0.84
Cn1cc(-c2cc(N3CCCCS3(=O)=O)ccc2Oc2ccc(F)cc2F)c2c(F)c[nH]c2c1=O | – | Sprague-Dawley rat, plasma | oral vs intravenous, 3 mg/kg oral, 1 mg/kg i.v. | – | oral bioavailability | 22%
Nc1ncc(-c2cnn(CCO)c2)c2scc(-c3ccc(NC(=O)Nc4cccc(F)c4)cc3)c12 | – | patients, plasma | oral, 480 mg twice weekly, day 1 | – | AUC(0-24 h) | 20400 ± 9870 ng·h/mL
C[C@@H](c1ncncc1F)[C@](O)(Cn1cncn1)c1ccc(F)cc1F | – | patients, hematological disorders, CYP2C19 normal metabolizers, plasma | 200 mg, 12 h, steady state, median | – | trough concentration | 1380 ng/mL
CCN1C(=O)CNc2ncc(-c3ccc(-c4nc[nH]n4)nc3C)nc21 | – | human, plasma | oral, 8 mg once daily, multiple doses | – | AUC(0-12h) | 221 ng·h/mL
O=S(=O)(c1cc(F)c(O)c2ncccc12)C1CCCC1 | – | rat Sprague-Dawley male, plasma | oral, 10 mg/kg, 4 h | – | free concentration | 19 nM
C[C@]1(c2nc3c(C(N)=O)cccc3[nH]2)CCCN1 | – | human patients, plasma | oral, 10 mg, day -2, cycle 1 | – | AUC(0-12h) | 370 ng·h/mL
Oc1ccc(C(c2ccc(O)cc2)(C(F)(F)F)C(F)(F)F)cc1 | – | male rat, plasma | oral, 340 mg/kg, single dose | – | half-life | 13.9 h
O=C(O)Cc1ccccc1Nc1c(Cl)cccc1Cl | – | rat, plasma | oral, 10 mg/kg, together with: sesamin 100 mg/kg | – | t1/2 | 8.6 ± 3.9 h
O=C([O-])CN(CC(=O)[O-])CC(=O)O.[Cu+2] | square wave voltammetry | metal chelate | concentration not given, pH 7.4, anaerobic | – | reduction potential vs NHE | 215 mV
Cc1c(C(=O)NN2CCCCC2)nn(-c2ccc(Cl)cc2Cl)c1-c1ccc(Cl)cc1 | LC-MS/MS | cynomolgus monkey 2, plasma | intravenous infusion, 0.2 mg/kg, 90 min, total concentration mid-point of PET | – | plasma concentration | 78 nM
CCCC[C@H](NC(C)=O)C(=O)N[C@H]1CCC(=O)NC[C@@H](C(=O)N[C@@H](Cc2c[nH]c3ccccc23)C(N)=O)NC(=O)[C@H](CCCNC(=N)N)NC(=O)[C@@H](Cc2ccccc2)NC(=O)[C@H](Cc2c[nH]cn2)NC1=O | – | female rat, plasma | subcutaneous, 1 mg/kg/day, multiple doses, once daily | – | Vd/F | 1.08 L/kg
